Experimental data of several laboratories.
Numbered parts are unrelated; each lists some results of a single study. Changes are numbered by the printed parent chain.

Block 1
Target: CCNA1, cyclin fold, Cln2 fusion (human)
Method: yeast growth competition, sequencing
Medium: yeast
Notes: weak parent motif
Reference: not given
Direction: higher = stronger binding
Parent: WEE1 docking peptide (human); HKTFRKLRLFDTP
| Variant | normalised enrichment score |
| --- | --- |
| F10Q | -0.183 |
| K2R | 0.39 |
| D11T | 0.127 |
| T12A | 0.138 |
| D11E | 0.248 |
| T3M | 0.132 |
| K6S | 0.154 |

Block 2
Target: Histone acetyltransferase KAT6A, winged helix 2, GST fusion (KAT6A, Homo sapiens, UniProt Q92794, residues 85-181)
Method: protein binding microarray
Form: double-stranded DNA, one strand shown
Medium: in vitro
Tested at: not given
Notes: 8-mer, flanks averaged, mean of 2 arrays, mostly near background
Reference: not given
Direction: higher = stronger binding
Target sequence (chain): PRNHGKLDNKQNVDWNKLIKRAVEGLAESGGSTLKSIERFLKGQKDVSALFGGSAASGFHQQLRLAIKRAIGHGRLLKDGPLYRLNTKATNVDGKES
| Sequence | E-score |
| --- | --- |
| ACAGCAGA | 0.109 |
| GCTGCCGA | 0.197 |
| ATAACGTC | -0.115 |
| AACTGCTC | -0.0572 |
| AGGTCGCG | 0.168 |
| GTGCCTGA | -0.0908 |
| GTACCTAC | -0.132 |
| GCTACTAC | -0.0622 |
| CTAGAGAG | 0.0106 |
| AGATCCAA | 0.152 |
| AAGGATGC | -0.103 |

Block 3
Target: ABI1, truncated, D143A, DHFR fusion (Arabidopsis thaliana)
Method: DHFR PCA, deep sequencing
Medium: yeast
Notes: methotrexate growth selection, single substitutions
Added: (+)-ABA 58 µM
Reference: wild-type fitted maximum
Direction: higher = stronger binding
Parent: PYL1, truncated, DHFR fusion (Arabidopsis thaliana); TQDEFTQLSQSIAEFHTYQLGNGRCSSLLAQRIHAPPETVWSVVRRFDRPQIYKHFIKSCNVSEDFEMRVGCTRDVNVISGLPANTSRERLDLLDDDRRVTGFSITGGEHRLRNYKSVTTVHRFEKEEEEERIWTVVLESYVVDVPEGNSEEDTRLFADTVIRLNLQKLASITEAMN
| Variant | relative binding score [%] |
| --- | --- |
| A175S | 82.9 |
| I57K | -0.494 |
| P37L | 62.3 |
| Q7D | 88.3 |
| F124G | 75.8 |
| T173N | 45.7 |
| N149K | 21 |

Further values, each from its own experiment
| Molecule | target | assay | test system | setting | how to read | quantity | result |
| --- | --- | --- | --- | --- | --- | --- | --- |
| PhoQ, residues 284 288 289 292 302 303 TTSMTC | PhoP, residues 12 14 15 18 19 YHFSH (Escherichia coli, UniProt P23836) | Sort-seq, refers to: YFP reporter | E. coli | PhoQ-PhoP variant library, added: 10 µM Mg2+ | reference: high Mg2+ state, higher = stronger signaling | fold induction | 10.9 |

A few entries again (block 2):
| Sequence | E-score |
| --- | --- |
| GTGCCTGA | -0.0908 |
| GTACCTAC | -0.132 |
| GCTACTAC | -0.0622 |
| CTAGAGAG | 0.0106 |
